Results pooled from the literature.
Each numbered part is a random draw from the data of one study; scales do not carry over between parts. pEC50: −log10 of the molar value.
Chain of UniProt O00506 (whole entry, looked up): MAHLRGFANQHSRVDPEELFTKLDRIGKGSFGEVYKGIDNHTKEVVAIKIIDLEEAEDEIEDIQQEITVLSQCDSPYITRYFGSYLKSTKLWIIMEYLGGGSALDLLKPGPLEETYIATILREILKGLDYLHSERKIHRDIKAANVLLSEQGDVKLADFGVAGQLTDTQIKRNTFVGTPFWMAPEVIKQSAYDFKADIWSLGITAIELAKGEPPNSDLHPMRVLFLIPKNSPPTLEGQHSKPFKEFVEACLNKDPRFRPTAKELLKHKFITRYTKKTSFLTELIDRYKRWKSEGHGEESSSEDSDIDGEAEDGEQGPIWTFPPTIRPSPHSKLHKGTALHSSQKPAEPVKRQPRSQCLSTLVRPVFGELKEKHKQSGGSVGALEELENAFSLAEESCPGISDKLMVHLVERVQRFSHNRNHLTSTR
Chain of UniProt Q9Y2U5 (whole entry, looked up): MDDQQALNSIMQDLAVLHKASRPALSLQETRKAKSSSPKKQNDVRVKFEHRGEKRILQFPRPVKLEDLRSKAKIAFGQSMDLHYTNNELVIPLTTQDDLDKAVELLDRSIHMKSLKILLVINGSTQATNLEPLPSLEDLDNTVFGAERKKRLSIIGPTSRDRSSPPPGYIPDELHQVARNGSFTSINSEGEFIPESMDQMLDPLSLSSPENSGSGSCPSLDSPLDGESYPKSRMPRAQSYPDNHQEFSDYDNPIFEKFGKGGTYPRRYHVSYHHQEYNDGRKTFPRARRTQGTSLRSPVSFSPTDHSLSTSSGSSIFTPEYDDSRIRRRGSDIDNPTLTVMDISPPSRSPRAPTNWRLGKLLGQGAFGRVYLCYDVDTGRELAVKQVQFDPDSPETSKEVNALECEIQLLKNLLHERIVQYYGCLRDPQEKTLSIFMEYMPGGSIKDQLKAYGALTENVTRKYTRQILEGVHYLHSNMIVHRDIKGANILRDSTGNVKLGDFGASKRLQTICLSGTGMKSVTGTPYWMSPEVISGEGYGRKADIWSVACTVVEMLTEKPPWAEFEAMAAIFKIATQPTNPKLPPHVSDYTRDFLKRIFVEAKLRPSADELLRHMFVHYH
Chain of UniProt Q9H093 (whole entry, looked up): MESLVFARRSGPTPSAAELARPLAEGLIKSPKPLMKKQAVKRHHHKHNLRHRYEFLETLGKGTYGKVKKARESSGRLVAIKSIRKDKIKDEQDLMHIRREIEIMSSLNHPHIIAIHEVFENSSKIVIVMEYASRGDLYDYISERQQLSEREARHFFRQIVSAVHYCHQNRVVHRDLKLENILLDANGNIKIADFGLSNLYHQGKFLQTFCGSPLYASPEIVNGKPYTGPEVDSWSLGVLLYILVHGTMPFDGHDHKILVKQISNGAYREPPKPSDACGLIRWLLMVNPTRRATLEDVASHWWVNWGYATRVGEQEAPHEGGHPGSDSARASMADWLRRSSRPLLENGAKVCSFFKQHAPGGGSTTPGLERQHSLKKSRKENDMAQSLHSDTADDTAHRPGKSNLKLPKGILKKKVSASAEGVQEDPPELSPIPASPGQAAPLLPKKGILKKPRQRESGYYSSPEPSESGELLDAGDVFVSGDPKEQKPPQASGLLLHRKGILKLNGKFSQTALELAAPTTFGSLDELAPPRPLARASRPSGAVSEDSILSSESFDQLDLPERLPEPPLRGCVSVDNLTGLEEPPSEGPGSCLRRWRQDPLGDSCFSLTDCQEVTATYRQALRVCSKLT
Chain of UniProt Q9BVS4 (whole entry, looked up): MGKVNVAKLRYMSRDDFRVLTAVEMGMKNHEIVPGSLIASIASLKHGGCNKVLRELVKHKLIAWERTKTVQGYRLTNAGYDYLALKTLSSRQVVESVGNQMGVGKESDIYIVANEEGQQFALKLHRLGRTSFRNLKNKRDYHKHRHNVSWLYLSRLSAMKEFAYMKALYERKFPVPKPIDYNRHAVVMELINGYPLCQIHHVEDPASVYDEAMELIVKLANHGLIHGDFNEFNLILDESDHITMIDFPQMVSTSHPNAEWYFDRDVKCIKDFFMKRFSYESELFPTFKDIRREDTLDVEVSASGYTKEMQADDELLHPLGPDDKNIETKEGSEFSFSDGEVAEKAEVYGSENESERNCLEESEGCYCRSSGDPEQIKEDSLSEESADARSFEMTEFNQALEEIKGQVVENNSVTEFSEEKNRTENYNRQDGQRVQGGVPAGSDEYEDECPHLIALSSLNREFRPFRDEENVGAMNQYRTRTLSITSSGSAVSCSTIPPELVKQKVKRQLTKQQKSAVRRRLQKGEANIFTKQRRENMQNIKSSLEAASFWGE

Block 1
Target: Insulin receptor-related protein (INSRR, Homo sapiens, UniProt P14616)
Chain of UniProt P14616 (whole entry, looked up): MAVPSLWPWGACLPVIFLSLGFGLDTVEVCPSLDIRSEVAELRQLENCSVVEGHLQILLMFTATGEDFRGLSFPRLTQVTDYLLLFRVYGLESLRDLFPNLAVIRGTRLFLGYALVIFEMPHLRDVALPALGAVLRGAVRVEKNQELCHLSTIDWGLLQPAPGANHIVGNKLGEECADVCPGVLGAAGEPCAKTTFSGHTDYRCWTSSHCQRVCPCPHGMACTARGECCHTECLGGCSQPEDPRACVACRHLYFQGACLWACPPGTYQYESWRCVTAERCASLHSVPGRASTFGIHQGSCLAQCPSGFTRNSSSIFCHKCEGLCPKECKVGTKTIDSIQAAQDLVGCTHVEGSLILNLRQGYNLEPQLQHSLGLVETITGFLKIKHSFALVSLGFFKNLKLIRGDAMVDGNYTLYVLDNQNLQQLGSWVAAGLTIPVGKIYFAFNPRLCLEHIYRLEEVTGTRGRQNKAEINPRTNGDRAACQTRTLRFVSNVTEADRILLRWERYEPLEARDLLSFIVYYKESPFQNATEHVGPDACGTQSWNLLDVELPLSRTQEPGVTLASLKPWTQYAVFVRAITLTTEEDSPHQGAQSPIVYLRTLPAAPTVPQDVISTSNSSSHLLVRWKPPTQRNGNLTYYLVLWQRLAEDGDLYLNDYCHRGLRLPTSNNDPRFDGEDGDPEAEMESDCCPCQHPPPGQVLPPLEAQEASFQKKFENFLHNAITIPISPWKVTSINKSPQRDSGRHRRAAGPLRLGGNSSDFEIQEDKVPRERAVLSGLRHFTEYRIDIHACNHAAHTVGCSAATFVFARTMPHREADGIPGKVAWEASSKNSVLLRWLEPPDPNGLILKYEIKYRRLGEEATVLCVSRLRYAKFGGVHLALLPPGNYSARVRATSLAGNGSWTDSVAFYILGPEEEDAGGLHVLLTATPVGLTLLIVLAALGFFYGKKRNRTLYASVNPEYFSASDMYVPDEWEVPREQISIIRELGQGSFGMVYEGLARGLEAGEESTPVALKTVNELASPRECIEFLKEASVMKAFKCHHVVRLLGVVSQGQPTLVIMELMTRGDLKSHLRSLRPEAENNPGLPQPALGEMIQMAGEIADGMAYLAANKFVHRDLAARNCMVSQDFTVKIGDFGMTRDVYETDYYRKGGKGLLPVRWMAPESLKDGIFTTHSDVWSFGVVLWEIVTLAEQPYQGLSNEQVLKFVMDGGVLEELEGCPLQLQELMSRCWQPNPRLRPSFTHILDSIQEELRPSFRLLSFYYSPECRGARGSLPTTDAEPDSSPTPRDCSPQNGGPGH
Observed: enzyme activity
Action: inhibitor
Concentration: 0.5 µM
Reference: control
With `COc1cc(Nc2c(C#N)cnc3cc(OCCCN4CCN(C)CC4)c(OC)cc23)c(Cl)cc1Cl` the remaining activity was 36.9%.
The remaining activity of `Cc1cc(Nc2nc(-c3ccccc3)nc3ccccc23)n[nH]1` is reported as 20.7%.
For `CC(C)(C)n1nc(Cc2cccc3ccccc23)c2c(N)ncnc21`, the remaining activity was 107%.
With `CCCC(=O)Oc1ccc2[nH]c(C(=O)c3cc4ccccc4[nH]3)cc2c1` the remaining activity was 97.9%.
`CC#CC(=O)Nc1cc2c(Nc3ccc(F)c(Cl)c3)ncnc2cn1` gave a remaining activity of 101%.
With `CC(=O)c1ccc(N2CCOCC2)cc1O` the remaining activity was 96.7%.
`NC(=O)c1ccc(N(C(N)=O)c2c(F)cccc2F)nc1-c1ccc(F)cc1F` has a remaining activity of 102%.
`Nc1ncnc2c1cnn2-c1ccccc1` gave a remaining activity of 106%.
With `Oc1ccc(Nc2nc(-c3ccc(Cl)cc3)cs2)cc1` the remaining activity was 98.8%.
With `Nc1nccc(-c2c(-c3ccc(F)cc3)ncn2C2CCNCC2)n1` the remaining activity was 103%.
With `Cc1cncc2cccc(S(=O)(=O)N3CCCN(C(=O)CN)C[C@@H]3C)c12` the remaining activity was 103%.
`O=C1NC(=O)C(c2c[nH]c3ccccc23)=C1c1c[nH]c2ccccc12` has a remaining activity of 90.1%.
For `N#CC(=C(N)Sc1ccc(N)cc1)c1ccccc1C(F)(F)F`, the remaining activity was 88.1%.
The remaining activity of `CCc1[nH]c(-c2ccc(OC)cc2)nc1-c1ccncc1` is reported as 102%.
With `Cc1ccc(NC2=CC(=O)c3sc(C)nc3C2=O)cc1` the remaining activity was 90%.
With `CSc1nc(-c2ccnc(N[C@@H](C)c3ccccc3)c2)c(-c2ccc(F)cc2)[nH]1` (racemic) the remaining activity was 98.9%.
The remaining activity of `COc1ccc(S(=O)(=O)N(CCO)c2ccccc2CN(C)CC=Cc2ccc(Cl)cc2)cc1` is reported as 97%.
The remaining activity of `Nc1nc(Nc2ccc(S(N)(=O)=O)cc2)nn1C(=O)c1c(F)cccc1F` is reported as 93.8%.
The remaining activity of `O=C1Cc2c([nH]c3ccc([N+](=O)[O-])cc23)-c2ccccc2N1` is reported as 94.5%.
`Fc1ccc(-c2nc3n(c2-c2ccncc2)CCS3)cc1` gave a remaining activity of 102%.
`CC[n+]1c(/C=C/N(C)c2ccccc2)n(-c2ccccc2)c2ccc(-c3nc4ccccc4s3)cc21` has a remaining activity of 101%.
`O=S(=O)(NCCNC/C=C/c1ccc(Br)cc1)c1cccc2cnccc12` gave a remaining activity of 103%.

Block 2
SMILES: O=C1CCC(N2Cc3cc(C4CCN(Cc5ccccc5)CC4)ccc3C2=O)C(=O)N1 (stereo not shown)
Target: CRBN/Zinc finger protein Helios (Homo sapiens, UniProt Q96SW2+Q9UKS7)
Chain of UniProt Q96SW2 (whole entry, looked up): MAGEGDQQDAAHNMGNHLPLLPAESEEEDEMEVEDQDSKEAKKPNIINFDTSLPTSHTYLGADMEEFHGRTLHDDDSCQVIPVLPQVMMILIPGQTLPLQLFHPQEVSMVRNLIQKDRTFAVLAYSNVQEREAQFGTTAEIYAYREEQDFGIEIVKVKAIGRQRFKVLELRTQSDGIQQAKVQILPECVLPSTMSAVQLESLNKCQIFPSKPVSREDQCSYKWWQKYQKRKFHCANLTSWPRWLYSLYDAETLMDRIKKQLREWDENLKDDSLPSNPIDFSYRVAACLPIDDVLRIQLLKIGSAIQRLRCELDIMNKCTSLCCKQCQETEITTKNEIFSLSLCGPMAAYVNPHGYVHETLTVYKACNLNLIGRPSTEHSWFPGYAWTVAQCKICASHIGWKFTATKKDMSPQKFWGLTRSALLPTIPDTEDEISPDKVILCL
Chain of UniProt Q9UKS7 (whole entry, looked up): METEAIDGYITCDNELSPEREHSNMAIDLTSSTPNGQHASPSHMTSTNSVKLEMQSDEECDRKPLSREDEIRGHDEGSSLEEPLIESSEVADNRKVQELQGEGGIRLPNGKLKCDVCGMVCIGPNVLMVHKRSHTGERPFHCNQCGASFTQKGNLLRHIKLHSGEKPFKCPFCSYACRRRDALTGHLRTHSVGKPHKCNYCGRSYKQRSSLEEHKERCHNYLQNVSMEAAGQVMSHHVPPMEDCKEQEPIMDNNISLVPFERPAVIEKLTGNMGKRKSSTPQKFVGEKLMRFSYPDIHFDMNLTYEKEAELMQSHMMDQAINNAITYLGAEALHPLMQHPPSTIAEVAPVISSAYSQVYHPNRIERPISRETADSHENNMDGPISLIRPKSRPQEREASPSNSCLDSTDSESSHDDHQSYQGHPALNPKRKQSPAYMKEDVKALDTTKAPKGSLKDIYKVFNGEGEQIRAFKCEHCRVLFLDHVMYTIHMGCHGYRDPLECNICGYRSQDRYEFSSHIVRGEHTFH
Action: degrader
Cells: HEK293
The protein remaining was 101% (HiBiT kinetics; 0.01694 nM, 6 h).
The protein remaining was 19.4% (HiBiT kinetics; 1000 nM, 6 h).
HiBiT; 1.372 nM, 6 h — protein remaining: 70%.
HiBiT kinetics; 12.35 nM, 1 h — protein remaining: 84.6%.
For HiBiT kinetics; 0.1524 nM, 6 h: protein remaining read 88%.
HiBiT kinetics; 37.04 nM, 3 h — protein remaining: 30.9%.
It gave 104% for protein remaining (HiBiT kinetics; 0.05081 nM, 0.5 h).
HiBiT kinetics; 37.04 nM, 0.5 h — protein remaining: 91.1%.
The protein remaining was 36.8% (HiBiT; 1000 nM).
The protein remaining was 54.6% (HiBiT kinetics; 4.115 nM, 3 h).

Block 3
Structure (SMILES): Nc1cnc(N2CCc3cc(S(=O)(=O)Nc4c(F)cc(Cl)cc4F)cc(N4CCCC4=O)c32)nc1
Observed: cell-free assay
Technique: competition with immobilised ligand
Concentration: 1 µM
The remaining binding was 88% (STK25 (Homo sapiens, UniProt O00506)).
For Non-receptor tyrosine-protein kinase TYK2, JH2 (TYK2, Homo sapiens, UniProt P29597): remaining binding read 100%.
For EPHA3 (Homo sapiens, UniProt P29320): remaining binding read 78%.
The remaining binding was 83% (RPS6KB1 (Homo sapiens, UniProt P23443)).
The remaining binding was 98% (MST1R (Homo sapiens, UniProt Q04912)).
For MARK3 (Homo sapiens, UniProt P27448): remaining binding read 100%.
The remaining binding was 100% (Tyrosine-protein kinase ABL1, non-phosphorylated (ABL1, Homo sapiens, UniProt P00519, Q252H)).
The remaining binding was 98% (PIM3 (Homo sapiens, UniProt Q86V86)).
For RIOK2 (Homo sapiens, UniProt Q9BVS4): remaining binding read 89%.
For TAOK2 (Homo sapiens, UniProt Q9UL54): remaining binding read 78%.
The remaining binding was 84% (PIK3CA (Homo sapiens, UniProt P42336, C420R)).
The remaining binding was 100% (MAP3K2 (Homo sapiens, UniProt Q9Y2U5)).
For LCK (Homo sapiens, UniProt P06239): remaining binding read 100%.
For IRAK1 (Homo sapiens, UniProt P51617): remaining binding read 100%.
PIM2 (Homo sapiens, UniProt Q9P1W9) — remaining binding: 85%.
NUAK2 (Homo sapiens, UniProt Q9H093) — remaining binding: 100%.

Block 4
Target: Beta-1 adrenergic receptor (ADRB1, Homo sapiens, UniProt P08588)
Chain of UniProt P08588 (whole entry, looked up): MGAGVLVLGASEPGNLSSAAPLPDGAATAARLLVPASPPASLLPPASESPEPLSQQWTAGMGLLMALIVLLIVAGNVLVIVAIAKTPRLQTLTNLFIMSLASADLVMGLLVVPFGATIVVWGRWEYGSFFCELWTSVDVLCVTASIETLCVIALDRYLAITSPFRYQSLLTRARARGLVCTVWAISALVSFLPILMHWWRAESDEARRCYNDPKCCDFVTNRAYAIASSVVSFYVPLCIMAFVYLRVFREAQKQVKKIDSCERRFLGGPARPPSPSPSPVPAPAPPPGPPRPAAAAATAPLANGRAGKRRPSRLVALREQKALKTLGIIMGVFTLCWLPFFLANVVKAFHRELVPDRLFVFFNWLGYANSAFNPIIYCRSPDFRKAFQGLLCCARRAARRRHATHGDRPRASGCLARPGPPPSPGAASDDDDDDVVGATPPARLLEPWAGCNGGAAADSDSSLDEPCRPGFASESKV
Action: agonist
`CC(CNc1cc(-c2ccccc2)c2ccccc2n1)N1CCOCC1` (stereo not shown) gave a pEC50 of ≤ 4.00.
`Cc1cc(=O)oc2cc(OCC(=O)NC3CCCc4c3[nH]c3ccccc43)ccc12` (stereo not shown) has a pEC50 of ≤ 4.00.
`COc1ccccc1N1CCN(C(C)C(N)=O)CC1` (stereo not shown) has a pEC50 of ≤ 4.00.
The pEC50 of `Cc1cccc2ncc(-c3cccc(NC4CNC4)n3)n12` is reported as ≤ 4.00.
With `COc1ccc(-c2ccc(Cn3ccnc3)cn2)c2ccc(C)nc12` the pEC50 was ≤ 4.00.
The pEC50 of `Cn1ccc(Nc2nccc3c(=O)cc(-c4cn[nH]c4)oc23)n1` is reported as ≤ 4.00.
`Cc1ccccc1-c1n[nH]c2ncc(-c3ccccc3C#N)nc12` has a pEC50 of ≤ 4.00.
For `COc1ccccc1N1CCN([S+](=O)([O-])c2ccc(C)cc2OC)CC1`, the pEC50 was ≤ 4.00.
`O=C(COc1ccccc1)Nc1ccc([C@@H](O)[C@H]2COCC(=O)N2Cc2ccc(C(F)(F)F)cc2)cc1` has a pEC50 of ≤ 4.00.
`COc1ccccc1N1CCN([S+](=O)([O-])N2CCC(C)C2)CC1` (stereo not shown) gave a pEC50 of ≤ 4.00.
For `O=C(NCCc1ccc(O)c(O)c1)C12CC3CC(CC(C3)C1)C2`, the pEC50 was ≤ 4.00.
For `COc1ccccc1N1CCN(C(=O)c2ccc3ccccc3n2)CC1`, the pEC50 was ≤ 4.00.
With `O=C1NCc2ccccc2CC12CCN(Cc1ccc3ccccc3n1)CC2` the pEC50 was ≤ 4.00.
